{"data": "Results from different studies", "note": "Each line is one published result; not all experiments were run side by side. Several values in a cell are separate wells, animals, samples, runs or records. ± marks the error that the study gave.", "chain of UniProt O76090 (whole entry, unmodified, looked up)": "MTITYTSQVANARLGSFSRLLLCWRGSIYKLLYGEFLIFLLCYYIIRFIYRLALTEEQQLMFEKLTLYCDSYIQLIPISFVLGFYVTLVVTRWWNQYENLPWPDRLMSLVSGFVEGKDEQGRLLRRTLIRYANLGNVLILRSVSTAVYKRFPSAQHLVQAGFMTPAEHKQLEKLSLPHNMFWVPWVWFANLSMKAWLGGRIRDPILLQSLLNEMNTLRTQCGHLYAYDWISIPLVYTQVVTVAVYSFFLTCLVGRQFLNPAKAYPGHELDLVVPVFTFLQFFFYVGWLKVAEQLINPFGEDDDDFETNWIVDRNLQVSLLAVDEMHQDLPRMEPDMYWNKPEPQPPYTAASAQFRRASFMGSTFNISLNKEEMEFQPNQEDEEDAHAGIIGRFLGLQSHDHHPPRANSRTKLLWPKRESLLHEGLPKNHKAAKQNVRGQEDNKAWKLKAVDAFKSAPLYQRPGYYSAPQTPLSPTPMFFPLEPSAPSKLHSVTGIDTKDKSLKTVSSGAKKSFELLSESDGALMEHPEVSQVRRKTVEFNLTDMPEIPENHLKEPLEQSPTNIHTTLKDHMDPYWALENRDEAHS", "chain of UniProt P41180 (whole entry, looked up)": "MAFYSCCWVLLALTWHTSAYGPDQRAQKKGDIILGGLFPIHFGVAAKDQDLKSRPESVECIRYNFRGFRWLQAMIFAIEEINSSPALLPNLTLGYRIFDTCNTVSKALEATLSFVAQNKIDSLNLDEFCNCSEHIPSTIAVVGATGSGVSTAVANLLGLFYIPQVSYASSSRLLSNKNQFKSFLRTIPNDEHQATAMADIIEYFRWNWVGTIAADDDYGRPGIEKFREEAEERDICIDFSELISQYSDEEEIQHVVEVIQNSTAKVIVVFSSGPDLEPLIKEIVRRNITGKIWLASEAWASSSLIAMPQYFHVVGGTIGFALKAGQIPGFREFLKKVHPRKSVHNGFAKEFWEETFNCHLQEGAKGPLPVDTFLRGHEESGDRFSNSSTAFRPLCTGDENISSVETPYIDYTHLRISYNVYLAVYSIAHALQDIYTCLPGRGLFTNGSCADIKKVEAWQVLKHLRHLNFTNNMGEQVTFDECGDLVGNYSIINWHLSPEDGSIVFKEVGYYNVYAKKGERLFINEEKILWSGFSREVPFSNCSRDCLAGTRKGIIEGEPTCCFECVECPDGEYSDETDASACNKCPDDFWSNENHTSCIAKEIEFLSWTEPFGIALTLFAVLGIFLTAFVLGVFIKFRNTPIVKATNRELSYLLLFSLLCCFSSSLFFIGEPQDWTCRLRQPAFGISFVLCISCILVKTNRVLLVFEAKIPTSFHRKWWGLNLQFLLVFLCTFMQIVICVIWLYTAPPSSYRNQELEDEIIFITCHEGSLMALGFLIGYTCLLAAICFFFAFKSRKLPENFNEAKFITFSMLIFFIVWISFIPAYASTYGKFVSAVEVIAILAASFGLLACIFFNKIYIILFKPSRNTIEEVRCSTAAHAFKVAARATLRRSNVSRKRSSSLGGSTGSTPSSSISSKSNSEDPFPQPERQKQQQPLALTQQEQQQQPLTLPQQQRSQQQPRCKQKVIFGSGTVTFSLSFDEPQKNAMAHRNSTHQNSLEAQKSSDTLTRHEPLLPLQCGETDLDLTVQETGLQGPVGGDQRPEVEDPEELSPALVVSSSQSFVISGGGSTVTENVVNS", "chain of UniProt O15164 (whole entry, looked up)": "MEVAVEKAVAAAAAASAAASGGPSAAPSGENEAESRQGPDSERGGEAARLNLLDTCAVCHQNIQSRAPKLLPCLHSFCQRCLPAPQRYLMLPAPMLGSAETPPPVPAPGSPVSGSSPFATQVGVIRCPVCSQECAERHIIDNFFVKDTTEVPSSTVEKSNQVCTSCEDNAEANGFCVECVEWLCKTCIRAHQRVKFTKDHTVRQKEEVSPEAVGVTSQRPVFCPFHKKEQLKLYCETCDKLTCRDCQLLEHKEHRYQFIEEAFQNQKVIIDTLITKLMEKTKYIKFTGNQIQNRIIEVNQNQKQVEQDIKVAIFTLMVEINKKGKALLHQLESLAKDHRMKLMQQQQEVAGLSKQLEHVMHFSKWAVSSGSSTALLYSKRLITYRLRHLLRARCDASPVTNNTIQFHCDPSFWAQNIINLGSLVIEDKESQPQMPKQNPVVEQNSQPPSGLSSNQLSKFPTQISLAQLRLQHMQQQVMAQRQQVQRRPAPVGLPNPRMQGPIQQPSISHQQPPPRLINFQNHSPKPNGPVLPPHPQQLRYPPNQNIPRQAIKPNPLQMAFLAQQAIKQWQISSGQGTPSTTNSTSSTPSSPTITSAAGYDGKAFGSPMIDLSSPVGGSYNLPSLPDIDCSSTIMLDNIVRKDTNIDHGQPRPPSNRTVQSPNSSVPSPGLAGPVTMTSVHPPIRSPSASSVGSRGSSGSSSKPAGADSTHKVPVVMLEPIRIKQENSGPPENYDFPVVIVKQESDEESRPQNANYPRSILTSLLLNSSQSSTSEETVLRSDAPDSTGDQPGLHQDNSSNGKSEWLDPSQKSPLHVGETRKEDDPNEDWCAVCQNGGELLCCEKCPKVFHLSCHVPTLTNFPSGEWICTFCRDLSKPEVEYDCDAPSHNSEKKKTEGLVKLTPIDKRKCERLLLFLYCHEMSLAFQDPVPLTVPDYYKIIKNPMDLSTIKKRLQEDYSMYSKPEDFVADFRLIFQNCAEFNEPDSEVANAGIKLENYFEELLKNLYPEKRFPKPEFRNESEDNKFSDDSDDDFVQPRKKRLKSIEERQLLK", "chain of UniProt P11388 (whole entry, looked up)": "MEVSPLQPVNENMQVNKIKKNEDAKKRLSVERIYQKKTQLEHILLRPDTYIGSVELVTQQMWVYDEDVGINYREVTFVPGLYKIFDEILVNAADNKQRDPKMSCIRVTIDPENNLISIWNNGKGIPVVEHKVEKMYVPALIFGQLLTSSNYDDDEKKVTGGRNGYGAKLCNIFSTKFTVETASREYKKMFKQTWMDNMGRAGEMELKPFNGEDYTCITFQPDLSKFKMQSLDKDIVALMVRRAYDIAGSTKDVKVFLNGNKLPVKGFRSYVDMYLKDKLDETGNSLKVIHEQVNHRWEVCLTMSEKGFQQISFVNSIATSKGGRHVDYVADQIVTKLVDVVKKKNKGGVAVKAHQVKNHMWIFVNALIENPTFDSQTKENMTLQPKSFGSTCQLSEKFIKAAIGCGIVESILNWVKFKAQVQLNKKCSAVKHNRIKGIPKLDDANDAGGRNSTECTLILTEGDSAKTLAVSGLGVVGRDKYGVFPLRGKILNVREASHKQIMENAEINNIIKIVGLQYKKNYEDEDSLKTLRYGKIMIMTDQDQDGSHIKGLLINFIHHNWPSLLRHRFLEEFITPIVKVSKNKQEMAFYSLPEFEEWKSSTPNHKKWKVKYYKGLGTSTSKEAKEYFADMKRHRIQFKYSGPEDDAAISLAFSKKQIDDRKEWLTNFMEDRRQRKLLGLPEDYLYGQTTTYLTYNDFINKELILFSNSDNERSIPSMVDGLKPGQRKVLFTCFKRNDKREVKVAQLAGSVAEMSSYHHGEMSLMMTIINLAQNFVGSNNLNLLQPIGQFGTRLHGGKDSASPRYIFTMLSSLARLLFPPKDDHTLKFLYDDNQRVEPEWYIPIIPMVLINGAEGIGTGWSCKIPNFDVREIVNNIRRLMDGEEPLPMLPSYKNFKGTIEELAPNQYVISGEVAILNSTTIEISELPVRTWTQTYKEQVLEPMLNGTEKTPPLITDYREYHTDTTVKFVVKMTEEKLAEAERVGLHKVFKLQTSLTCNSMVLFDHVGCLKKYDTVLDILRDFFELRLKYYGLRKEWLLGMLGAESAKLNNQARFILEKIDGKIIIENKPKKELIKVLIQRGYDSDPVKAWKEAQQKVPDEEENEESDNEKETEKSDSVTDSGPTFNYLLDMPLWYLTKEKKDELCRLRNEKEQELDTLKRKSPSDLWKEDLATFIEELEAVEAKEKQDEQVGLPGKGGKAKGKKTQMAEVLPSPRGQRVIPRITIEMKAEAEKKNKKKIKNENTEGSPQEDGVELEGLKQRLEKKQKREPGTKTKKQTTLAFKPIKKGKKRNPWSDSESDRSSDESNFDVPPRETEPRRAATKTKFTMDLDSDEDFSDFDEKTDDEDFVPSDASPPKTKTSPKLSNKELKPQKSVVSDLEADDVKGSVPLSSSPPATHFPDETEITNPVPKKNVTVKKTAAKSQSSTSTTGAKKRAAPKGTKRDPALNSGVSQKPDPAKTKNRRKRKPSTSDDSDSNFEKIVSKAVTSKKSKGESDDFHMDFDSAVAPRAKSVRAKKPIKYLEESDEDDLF", "chain of UniProt Q62351 (whole entry, looked up)": "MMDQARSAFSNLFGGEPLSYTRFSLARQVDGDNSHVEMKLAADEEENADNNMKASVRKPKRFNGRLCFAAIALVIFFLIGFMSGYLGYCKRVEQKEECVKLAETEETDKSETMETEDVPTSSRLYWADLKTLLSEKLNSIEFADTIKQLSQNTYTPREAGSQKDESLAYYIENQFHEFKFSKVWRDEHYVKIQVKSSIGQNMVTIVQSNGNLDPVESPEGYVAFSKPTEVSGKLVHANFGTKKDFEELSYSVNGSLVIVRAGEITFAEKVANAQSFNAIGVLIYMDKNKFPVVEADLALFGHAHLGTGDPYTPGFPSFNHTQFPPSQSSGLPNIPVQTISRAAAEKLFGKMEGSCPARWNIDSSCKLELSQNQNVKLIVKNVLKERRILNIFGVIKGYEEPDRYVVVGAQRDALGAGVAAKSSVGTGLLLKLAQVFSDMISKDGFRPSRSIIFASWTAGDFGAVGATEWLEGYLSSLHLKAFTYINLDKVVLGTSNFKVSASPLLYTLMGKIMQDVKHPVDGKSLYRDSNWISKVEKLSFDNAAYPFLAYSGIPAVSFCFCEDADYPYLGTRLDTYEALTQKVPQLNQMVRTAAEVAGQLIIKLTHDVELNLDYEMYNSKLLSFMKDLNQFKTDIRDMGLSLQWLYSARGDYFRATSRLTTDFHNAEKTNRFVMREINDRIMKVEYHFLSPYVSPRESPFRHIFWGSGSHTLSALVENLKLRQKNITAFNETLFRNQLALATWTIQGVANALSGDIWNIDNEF"}
{"Compound": "CC(C)C[C@H](NC(=O)C[C@H](O)[C@H](CC(C)C)NC(=O)[C@H](Cc1c[nH]cn1)NC(=O)CNC(=O)[C@@H](NC(=O)[C@H](C)NC(=O)[C@H](Cc1c[nH]c2ccccc12)NC(=O)[C@H](CCC(N)=O)NC(=O)[C@@H](Cc1ccccc1)NC(=O)COCCOCCNC(=O)CCC(C(=O)O)N1CCN(CC(=O)O)CCN(CC(=O)O)CCN(CC(=O)O)CC1)C(C)C)C(N)=O (some centres unmarked) [lutetium-177 labelled]", "test system": "BALB/c nu/nu mice, female, pancreas", "setting": "50 pmol, 1 h, together with: PBS co-injection", "quantity": "tissue uptake", "result": "3.8 ± 0.4 %ID/g"}
{"Compound": "Cn1cc(-c2ccc(-c3cncc(Cl)c3N3CCC4(CCNC4=O)CC3)cc2)cn1", "target or system": "COLO 205", "assay": "gene expression, microarray, item: FOXM1 mRNA", "setting": "concentration not given, 2 h", "how to read": "reference: untreated cells", "quantity": "log2 fold change", "result": -1.77}
{"Compound": "CC[C@H](C)[C@H](NC(=O)[C@H](Cc1ccccc1)NC(=O)[C@H](CCC(=O)O)NC(=O)[C@H](CCCNC(=N)N)NC(=O)[C@H](C)NC(=O)[C@H](C)NC(=O)[C@H](CCC(N)=O)NC(=O)[C@H](CCC(=O)O)NC(=O)[C@H](CCC(=O)O)NC(=O)[C@H](CC(C)C)NC(=O)[C@H](Cc1ccc(O)cc1)NC(=O)[C@H](CO)NC(=O)[C@H](CO)NC(=O)[C@@H](NC(=O)[C@H](CC(=O)O)NC(=O)[C@H](CO)NC(=O)[C@@H](NC(=O)[C@H](Cc1ccccc1)NC(=O)[C@@H](NC(=O)CNC(=O)[C@H](CCC(=O)O)NC(=O)[C@H](C)NC(=O)CCc1cnc[nH]1)[C@@H](C)O)[C@@H](C)O)C(C)C)C(=O)N[C@@H](C)C(=O)N[C@@H](Cc1c[nH]c2ccccc12)C(=O)N[C@@H](CC(C)C)C(=O)N[C@H](C(=O)N[C@@H](CCCCNC(=O)COCCOCCNC(=O)COCCOCCNC(=O)CC[C@H](NC(=O)CCCCCCCCCCCCCCCCC(=O)O)C(=O)O)C(=O)NCC(=O)N[C@@H](CCCNC(=N)N)C(=O)N[C@@H](CCCCNc1c(NCCCCCN(O)C(=O)CCC(=O)NCCCCCN(O)C(=O)CCC(=O)NCCCCCN(O)C(C)=O)c(=O)c1=O)C(=O)NCC(=O)NCC(=O)N[C@@H](CO)C(=O)N[C@@H](CCCCNc1c(NCCCCCN(O)C(=O)CCC(=O)NCCCCCN(O)C(=O)CCC(=O)NCCCCCN(O)C(C)=O)c(=O)c1=O)C(=O)NCC(=O)NCC(=O)N[C@@H](CO)C(=O)N[C@@H](CCCCNc1c(NCCCCCN(O)C(=O)CCC(=O)NCCCCCN(O)C(=O)CCC(=O)NCCCCCN(O)C(C)=O)c(=O)c1=O)C(=O)O)C(C)C", "target or system": "GLP1R (Homo sapiens, UniProt P43220)", "assay": "agonist, CRE luciferase reporter", "test system": "BHK cells", "setting": "Zr-loaded DFO conjugate, together with: 1% HSA", "how to read": "reference: parent peptide", "quantity": "fold potency loss", "result": 3.3}
{"Compound": "CN1CCN(c2cc(-c3ccncc3)c(-c3ccc4ccccc4c3)nn2)CC1", "target or system": "CASR (Homo sapiens, UniProt P41180)", "assay": "agonist, FLIPR", "setting": "12.5 µM", "quantity": "activation", "result": "1.8%"}
{"Compound": "COc1cc(F)ccc1-c1ncnc(Nc2cccc(C[S@](C)(=N)=O)c2)n1", "target or system": "MELK (Homo sapiens, UniProt Q14680)", "assay": "kinase activity", "setting": "10 µM, together with: 10 µM ATP", "quantity": "remaining activity", "result": "82%"}
{"Compound": "O=C(NCC1CCOCC1)c1ccc(C2CCCCC2)cc1", "assay": "hepatocyte stability", "test system": "cryopreserved human hepatocytes", "setting": "1 µM", "quantity": "hepatic clearance", "result": "19 mL/min/kg"}
{"Compound": "Nc1ccc(C(=O)O)cc1", "target or system": "BEST1, with wild-type BEST1 (Homo sapiens, UniProt O76090, L234P)", "assay": "ion current, whole-cell patch clamp", "test system": "HEK293 co-expressing mutant and wild-type", "setting": "concentration not given, voltage 40 mV", "quantity": "current density", "result": "11.7 pA/pF and 5.93 pA/pF and 8.41 pA/pF and 21.5 pA/pF and 6.79 pA/pF and 3.65 pA/pF"}
{"Compound": "CC[C@@H](C)[C@@H](NC(=O)[C@@H](Cc1ccc(O)cc1)NC(=O)[C@H]1CCCN1C(=O)[C@@H](CCCNC(=N)N)NC(=O)[C@H](N)Cc1c[nH]cn1)C(=O)N[C@H](C)C(=O)N[C@H](Cc1c[nH]cn1)C(=O)N[C@H](CCCNC(=N)N)C(=O)N[C@@H](C(=O)N[C@H](Cc1ccc(O)cc1)C(=O)N[C@H](CO)C(=O)N[C@H](Cc1ccccc1)C(N)=O)C(C)C", "target or system": "Transferrin receptor protein 1 (Tfrc, Mus musculus, UniProt Q62351)", "assay": "flow cytometry", "test system": "RAW264.7", "setting": "24 h, pH 6, replicate 1, unit not given", "how to read": "reference: 0 h", "quantity": "surface TFRC expression", "result": 0.978}
{"Compound": "[N-]=[N+]=NCC(=O)N[C@H]1[C@H]([C@H](O)[C@H](O)CO)O[C@@](O[C@H]2[C@@H](O)[C@@H](CO)O[C@@H](Oc3ccc([N+](=O)[O-])cc3)[C@@H]2O)(C(=O)O)C[C@@H]1O", "target or system": "Sialidase-2 (Homo sapiens, UniProt Q9Y3R4)", "assay": "substrate", "setting": "10 min, pH 5.0, 37 °C", "quantity": "kcat", "result": "0.44 ± 0.04 s⁻¹"}
{"Compound": "Cc1ccc(N2CC(C(N)=O)CC2=O)cc1 (centres unmarked)", "target or system": "Transcription intermediary factor 1-alpha, PHD-bromodomain (TRIM24, Homo sapiens, UniProt O15164)", "assay": "binding, affinity selection mass spectrometry", "how to read": "reference: other proteins in batch", "quantity": "log fold enrichment", "result": 0.0529}
{"Compound": "CC(C(=O)Nc1ccc([C@H]2[C@@H](F)[C@@H](F)C[C@@H](F)[C@H]2F)cc1)n1cncn1 (some centres unmarked)", "test system": "cryopreserved rat hepatocytes", "setting": "1 µM", "quantity": "hepatic clearance", "result": "10 mL/min/kg"}
{"Compound": "Cc1nc(CSc2nc(SCc3ccc(C(C)C)cc3)nc(=O)[nH]2)cs1", "target or system": "TOP2A (Homo sapiens, UniProt P11388)", "assay": "DNA relaxation", "setting": "31.25 µM", "quantity": "mean relaxed DNA", "result": "99.9%"}
{"Compound": "CC1(C)CN(CCCCC(=O)N[C@H](Cc2ccccc2)C(=O)N[C@H](Cc2ccccc2)C(=O)N[C@H](CCCCNC(=O)CCCCCCC(=O)NCCCC[C@H](NC(=O)N[C@@H](CCC(=O)O)C(=O)O)C(=O)O)C(=O)O)CC[N]2CC(C)(C)[S][Tc]2(=[O])[S]1 (some centres unmarked) [technetium-99m labelled]", "target or system": "FOLH1 (Homo sapiens, UniProt Q04609)", "assay": "saturation binding", "test system": "LNCaP", "quantity": "Bmax", "result": "4 µmol/mg"}
{"Compound": "COc1cc(O)c2c(c1)oc(=O)c1c3cc(O)c(O)cc3oc21", "target or system": "MAL12 (Saccharomyces cerevisiae S288c, UniProt P53341)", "assay": "fluorescence quenching", "setting": "concentration not given, 310 K", "quantity": "number of binding sites", "result": 0.97}
